# Measurements collected from several papers.
# Each line is one published result; not all experiments were run side by side.
# Organism: Acinetobacter baumannii
Compound,assay,test system,conditions,MIC
C#CCO/N=C(\C(=O)N[C@@H]1C(=O)N(S(=O)(=O)O)[C@H]1C)c1csc(N)n1,agar dilution,ATCC 19606,,8 µg/mL
COc1cc(C(=O)O)ccc1NC(=O)c1ccc(NC(=O)c2ccc(NC(=O)[C@H](Cc3c[nH]nn3)NC(=O)c3ccc(NC(=O)/C(C)=C/c4ccc(O)cc4)cc3)cc2)cc1,broth microdilution,ciprofloxacin-resistant,,4 µg/mL
CCCCCCCC(=O)N[C@@H](CCN)C(=O)N[C@H](C(=O)N[C@@H](C)C(=O)N[C@H]1CCNC(=O)[C@H]([C@@H](C)O)NC(=O)[C@H](CCN)NC(=O)[C@H](CCN)NC(=O)[C@H](CC(C)C)NC(=O)[C@@H](Cc2ccccc2)NC(=O)[C@H](CCN)NC1=O)[C@@H](C)O,broth microdilution,ATCC 19606,"20 h, 37 °C",8 µg/mL
CCCCCCCCCCCC[N+](C)(C)CCCCOc1cc(OCCCC[N+](C)(C)CCCCCCCCCCCC)cc(OCCCC[N+](C)(C)CCCCCCCCCCCC)c1.[Br-].[Br-].[Br-],,ATCC 17978,,4 µM
CN[C@H](CC(C)C)C(=O)N[C@H]1C(=O)N[C@@H](CC(N)=O)C(=O)N[C@H]2C(=O)N[C@H]3C(=O)N[C@H](C(=O)N[C@H](C(=O)NCc4cn(CCCCC(=O)N[C@H](C(=O)N[C@@H](CCN)C(=O)N[C@H]5CCNC(=O)[C@H]([C@@H](C)O)NC(=O)[C@H](CCN)NC(=O)[C@H](CCN)NC(=O)[C@H](CC(C)C)NC(=O)[C@@H](CC(C)C)NC(=O)[C@H](CCN)NC5=O)[C@@H](C)O)nn4)c4cc(O)cc(O)c4-c4cc3ccc4O)[C@H](O)c3ccc(c(Cl)c3)Oc3cc2cc(c3O[C@@H]2O[C@H](CO)[C@@H](O)[C@H](O)[C@H]2O[C@H]2C[C@](C)(N)[C@H](O)[C@H](C)O2)Oc2ccc(cc2Cl)[C@H]1O,broth microdilution,"ATCC 17978, cation-adjusted Mueller-Hinton broth","18 to 20 h, 37 °C, 0.002% polysorbate 80",64 µg/mL
COc1ccc2ccc(O)c(/C=N/[C@H]3CCCC[C@H]3/N=C/c3cc(C(C)(C)C)cc(C(C)(C)C)c3O)c2c1,"bacterial growth, broth microdilution",carbapenem-resistant clinical isolate,,> 40 µM
CC[C@H]1OC(=O)[C@H](C)[C@@H](OC(=O)Cc2ccc([N+](=O)[O-])cc2)[C@H](C)[C@@H](O[C@@H]2O[C@H](C)C[C@H](N(C)C)[C@H]2O)[C@](C)(OC)C[C@@H](C)C(=O)[C@H](C)[C@@H](O)[C@]1(C)O,microbial growth,ATCC19606,,> 32 µg/mL
C#CCNC(=O)C(C)(C)O/N=C(\C(=O)N[C@@H]1C(=O)N(S(=O)(=O)O)[C@H]1C)c1csc(N)n1,agar dilution,16-16,,> 128 µg/mL
CC[C@H]1OC(=O)[C@H](C)[C@@H](OC(=O)Cc2c(F)cc([N+](=O)[O-])cc2F)[C@H](C)[C@@H](O[C@@H]2O[C@H](C)C[C@H](N(C)C)[C@H]2O)[C@](C)(OC)C[C@@H](C)C(=O)[C@H](C)[C@@H](O)[C@]1(C)O,,DSM 30007,together with: colistin sulfate at 0.5 x MIC,0.25 µM
C=CCO/N=C(\C(=O)N[C@@H]1C(=O)N(OS(=O)(=O)O)C1(C)C)c1csc(N)n1,agar dilution,ATCC 19606,,8 µg/mL
CCCCCCCC(=O)N[C@@H](CCN)C(=O)N[C@H](C(=O)N[C@@H](CN)C(=O)N[C@H]1CCNC(=O)[C@H]([C@@H](C)O)NC(=O)[C@H](CCN)NC(=O)[C@H](CCN)NC(=O)[C@H]([C@@H](C)O)NC(=O)[C@@H](CC(C)C)NC(=O)[C@H](CCN)NC1=O)[C@@H](C)O,,"ATCC 19606, CAMHB","20 h, 37 °C",0.5 µg/mL
COc1ccc2ccc(O)c(/C=N/[C@H]3CCCC[C@H]3/N=C/c3cccc(F)c3O)c2c1,"bacterial growth, broth microdilution",carbapenem-resistant clinical isolate,,> 40 µM
CC1(C)[C@H](NC(=O)/C(=N\OCC(=O)N2CCC(C(=O)O)CC2)c2csc(N)n2)C(=O)N1OS(=O)(=O)O,agar dilution,ATCC 19606,,> 64 µg/mL
CCCCCC[N+](C)(C)CCCCCCOc1cc(OCCCCCC[N+](C)(C)CCCCCC)cc(OCCCCCC[N+](C)(C)CCCCCC)c1.[Br-].[Br-].[Br-],,ATCC 17978,,125 µM
CC[C@H](C)[C@H](NC(=O)[C@@H](CCCNC(=N)N)NC(=O)[C@H](CCCNC(=N)N)NC(=O)[C@@H]1CCCN1C(=O)[C@@H]1CCCN1C(=O)[C@H](CCCNC(=N)N)NC(=O)[C@@H]1CCCN1C(=O)[C@H](CCCNC(=N)N)NC(=O)[C@@H]1CCCN1C(=O)[C@H](CC(C)C)NC(=O)[C@H](Cc1ccc(O)cc1)NC(=O)[C@@H]1CCCN1C(=O)[C@@H]1CCCN1C(=O)[C@H](CCCNC(=N)N)NC(=O)[C@H](CC(=O)O)NC(=O)[C@@H](N)C(C)C)C(=O)N[C@@H](Cc1ccc(O)cc1)C(=O)N[C@@H](CC(N)=O)C(=O)N[C@H](CCCNC(=N)N)C(N)=O,broth microdilution,DSM 30008,"18 h, 37 °C, 25% MHB2",32 µg/mL
CCCCCC[N+](C)(C)CCCCCCCCOc1cc(OCCCCCCCC[N+](C)(C)CCCCCC)cc(OCCCCCCCC[N+](C)(C)CCCCCC)c1.[Br-].[Br-].[Br-],,ATCC 17978,,4 µM
CCCCCCCC(=O)N[C@@H](CCCN)C(=O)N[C@H](C(=O)N[C@@H](CCN)C(=O)N[C@H]1CCNC(=O)[C@H]([C@@H](C)O)NC(=O)[C@H](CCN)NC(=O)[C@H](CCN)NC(=O)[C@H]([C@@H](C)O)NC(=O)[C@@H](CC(C)C)NC(=O)[C@H](CCN)NC1=O)[C@@H](C)O,,"ATCC 19606, CAMHB","20 h, 37 °C",> 32 µg/mL
CCCCCCCCCCn1cc[n+](CCCCCCCCCCOc2cc(OCCCCCCCCCC[n+]3ccn(CCCCCCCCCC)c3)cc(OCCCCCCCCCC[n+]3ccn(CCCCCCCCCC)c3)c2)c1.[Br-].[Br-].[Br-],,ATCC 17978,,125 µM
CC(C)C[C@@H]1NC(=O)[C@@H](CC(C)C)NC(=O)[C@H](CCN)NC(=O)[C@@H](NC(=O)[C@H](CCN)NC(=O)[C@@H](N)[C@@H](C)O)CCNC(=O)[C@H]([C@@H](C)O)NC(=O)[C@H](CCN)NC(=O)[C@H](CCN)NC1=O,broth microdilution,"ATCC 17978, cation-adjusted Mueller-Hinton broth","18 to 20 h, 37 °C, 0.002% polysorbate 80",> 128 µg/mL
O=[N+]([O-])c1cc(Cl)c2cccnc2c1O,"microbial growth, broth dilution",ATCC19606,,8 µg/mL
CCCCCCCC(=O)N[C@@H](CCN)C(=O)N[C@H](C(=O)N[C@@H](CN)C(=O)N[C@H]1CCNC(=O)[C@H]([C@@H](C)O)NC(=O)[C@H](CCN)NC(=O)[C@H](CCN)NC(=O)[C@H]([C@@H](C)O)NC(=O)[C@@H](CC(C)C)NC(=O)[C@H](CN)NC1=O)[C@@H](C)O,,"ATCC 17978, CAMHB","20 h, 37 °C",0.5 µg/mL
CCCCCCCC(=O)N[C@@H](CCN)C(=O)N[C@H](C(=O)N[C@@H](CCN)C(=O)N[C@H]1CCNC(=O)[C@H]([C@@H](C)O)NC(=O)[C@H](CCN)NC(=O)[C@H](C)NC(=O)[C@H](CC(C)C)NC(=O)[C@@H](Cc2ccccc2)NC(=O)[C@H](CCN)NC1=O)[C@@H](C)O,CLSI broth microdilution,"248-01-C.248, CAMHB","20 h, 37 °C",16 µg/mL
C/C(=C\c1ccc(O)cc1)C(=O)Nc1ccc(C(=O)N[C@@H](Cc2c[nH]nn2)C(=O)Nc2ccc(C(=O)Nc3ccc(C(=O)Nc4ccc(C(=O)O)c(O)c4)c(O)c3)cc2)cc1,broth microdilution,ciprofloxacin-resistant,,8 µg/mL
CC[C@H](C)[C@@H]1NC(=O)[C@H](CCC(=O)O)NC(=O)[C@@H]2CSSC[C@@H]3NC(=O)[C@H](Cc4ccc(O)cc4)NC(=O)[C@@H](NC(=O)[C@@H](NC(=O)[C@H](C)N)[C@@H](C)O)CSSC[C@@H](C(=O)N[C@@H](CCCNC(=N)N)C(=O)O)NC(=O)[C@H](CSSC[C@H](NC(=O)[C@H](CCCNC(=N)N)NC(=O)CNC(=O)[C@H]([C@@H](C)O)NC(=O)[C@H](CCCNC(=N)N)NC3=O)C(=O)N[C@@H](C)C(=O)N[C@@H]([C@@H](C)O)C(=O)N[C@@H](CCCNC(=N)N)C(=O)N[C@@H](CCC(=O)O)C(=O)N[C@@H](CO)C(=O)N[C@@H](CC(C)C)C(=O)N[C@@H](CO)C(=O)NCC(=O)N[C@@H](C(C)C)C(=O)N2)NC(=O)[C@H](CC(C)C)NC(=O)[C@H](CCCNC(=N)N)NC(=O)[C@H](Cc2ccc(O)cc2)NC(=O)[C@H](CC(C)C)NC(=O)[C@H](CCCNC(=N)N)NC(=O)CNC(=O)[C@H](CO)NC1=O,broth turbidity,,,22.4 µg/mL
COc1c(NC(=O)c2ccc(NC(=O)[C@H](Cc3c[nH]nn3)NC(=O)c3ccc(NC(=O)/C(C)=C/c4ccc(O)cc4)cc3)cc2)ccc(C(=O)Nc2ccc(C(=O)O)cc2)c1O,broth microdilution,ciprofloxacin-resistant,,1 µg/mL
CCCCCCCC(=O)N[C@@H](CN)C(=O)N[C@H](C(=O)N[C@@H](CCN)C(=O)N[C@H]1CCNC(=O)[C@H]([C@@H](C)O)NC(=O)[C@H](CCN)NC(=O)[C@H](CCN)NC(=O)[C@H]([C@@H](C)O)NC(=O)[C@@H](CC(C)C)NC(=O)[C@H](CCN)NC1=O)[C@@H](C)O,,"ATCC 19606, CAMHB","20 h, 37 °C",4 µg/mL
CCCCCCCC(=O)N[C@@H](C)C(=O)N[C@H](C(=O)N[C@@H](CCN)C(=O)N[C@H]1CCNC(=O)[C@H]([C@@H](C)O)NC(=O)[C@H](CCN)NC(=O)[C@H](CCN)NC(=O)[C@H](CC(C)C)NC(=O)[C@@H](Cc2ccccc2)NC(=O)[C@H](CCN)NC1=O)[C@@H](C)O,broth microdilution,ATCC 19606,"20 h, 37 °C",512 µg/mL
CC[C@H]1OC(=O)[C@H](C)[C@@H](OC(=O)Cc2ccc3c(c2)OCO3)[C@H](C)[C@@H](O[C@@H]2O[C@H](C)C[C@H](N(C)C)[C@H]2O)[C@](C)(OC)C[C@@H](C)C(=O)[C@H](C)[C@@H](O)[C@]1(C)O,,DSM 30007,together with: colistin sulfate at 0.1 x MIC,0.25 µM
CC1(C)[C@H](NC(=O)/C(=N\OC2(C(=O)O)CC2)c2nsc(N)n2)C(=O)N1OS(=O)(=O)O,agar dilution,16-16,,> 64 µg/mL
COC(=O)CNC(=O)c1ccc(NC(=O)c2[nH]c(C)c(Cl)c2Cl)c(N2CCN(C(=O)OC(C)(C)C)CC2)c1,"microbial growth, broth dilution",ATCC19606,,> 32 µg/mL
CC[C@H]1OC(=O)[C@H](C)[C@@H](OC(=O)Cc2ccccc2Cl)[C@H](C)[C@@H](O[C@@H]2O[C@H](C)C[C@H](N(C)C)[C@H]2O)[C@](C)(OC)C[C@@H](C)C(=O)[C@H](C)[C@@H](O)[C@]1(C)O,microbial growth,ATCC19606,,> 32 µg/mL
CN[C@H](CC(C)C)C(=O)N[C@H]1C(=O)N[C@@H](CC(N)=O)C(=O)N[C@H]2C(=O)N[C@H]3C(=O)N[C@H](C(=O)N[C@H](C(=O)N[C@@H](CCCNC(=N)N)C(N)=O)c4cc(O)cc(O)c4-c4cc3ccc4O)[C@H](O)c3ccc(c(Cl)c3)Oc3cc2cc(c3O[C@@H]2O[C@H](CO)[C@@H](O)[C@H](O)[C@H]2O[C@H]2C[C@](C)(NCc3ccc(OCc4cn(CC(=O)N[C@H](C(=O)N[C@@H](CCN)C(=O)N[C@H]5CCNC(=O)[C@H]([C@@H](C)O)NC(=O)[C@H](CCN)NC(=O)[C@H](CCN)NC(=O)[C@H](CC(C)C)NC(=O)[C@@H](CC(C)C)NC(=O)[C@H](CCN)NC5=O)[C@@H](C)O)nn4)c(OC)c3)[C@H](O)[C@H](C)O2)Oc2ccc(cc2Cl)[C@H]1O,broth microdilution,"BAA-747, cation-adjusted Mueller-Hinton broth","18 to 20 h, 37 °C, 0.002% polysorbate 80",32 µg/mL

# Excerpt of the above:
Compound,assay,test system,conditions,MIC
CN[C@H](CC(C)C)C(=O)N[C@H]1C(=O)N[C@@H](CC(N)=O)C(=O)N[C@H]2C(=O)N[C@H]3C(=O)N[C@H](C(=O)N[C@H](C(=O)NCc4cn(CCCCC(=O)N[C@H](C(=O)N[C@@H](CCN)C(=O)N[C@H]5CCNC(=O)[C@H]([C@@H](C)O)NC(=O)[C@H](CCN)NC(=O)[C@H](CCN)NC(=O)[C@H](CC(C)C)NC(=O)[C@@H](CC(C)C)NC(=O)[C@H](CCN)NC5=O)[C@@H](C)O)nn4)c4cc(O)cc(O)c4-c4cc3ccc4O)[C@H](O)c3ccc(c(Cl)c3)Oc3cc2cc(c3O[C@@H]2O[C@H](CO)[C@@H](O)[C@H](O)[C@H]2O[C@H]2C[C@](C)(N)[C@H](O)[C@H](C)O2)Oc2ccc(cc2Cl)[C@H]1O,broth microdilution,"ATCC 17978, cation-adjusted Mueller-Hinton broth","18 to 20 h, 37 °C, 0.002% polysorbate 80",64 µg/mL
C#CCNC(=O)C(C)(C)O/N=C(\C(=O)N[C@@H]1C(=O)N(S(=O)(=O)O)[C@H]1C)c1csc(N)n1,agar dilution,16-16,,> 128 µg/mL
O=[N+]([O-])c1cc(Cl)c2cccnc2c1O,"microbial growth, broth dilution",ATCC19606,,8 µg/mL
